{"data": "Measured values collected from several papers", "clp full length assumed": "clp full length assumed (Lysobacter enzymogenes, UniProt Q7WZ07)", "ELAVL1 full length assumed": "ELAVL1 full length assumed (Homo sapiens, UniProt Q15717)", "WRKY6 full length assumed": "WRKY6 full length assumed (Arabidopsis thaliana, UniProt Q9C519)", "pum": "pum 1093-1426 (Drosophila melanogaster, UniProt P25822)", "T1": "NFATC1 408-716; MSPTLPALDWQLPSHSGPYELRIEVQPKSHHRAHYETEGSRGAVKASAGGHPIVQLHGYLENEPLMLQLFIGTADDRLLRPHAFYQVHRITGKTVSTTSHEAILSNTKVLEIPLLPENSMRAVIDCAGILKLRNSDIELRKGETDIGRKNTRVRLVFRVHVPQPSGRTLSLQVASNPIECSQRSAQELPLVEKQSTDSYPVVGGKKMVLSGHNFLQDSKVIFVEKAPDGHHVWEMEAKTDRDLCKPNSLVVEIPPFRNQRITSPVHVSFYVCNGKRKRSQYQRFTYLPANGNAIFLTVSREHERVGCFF", "note": "Each line is one published result; not all experiments were run side by side.", "UniProt O15527, sequence (whole entry, looked up)": "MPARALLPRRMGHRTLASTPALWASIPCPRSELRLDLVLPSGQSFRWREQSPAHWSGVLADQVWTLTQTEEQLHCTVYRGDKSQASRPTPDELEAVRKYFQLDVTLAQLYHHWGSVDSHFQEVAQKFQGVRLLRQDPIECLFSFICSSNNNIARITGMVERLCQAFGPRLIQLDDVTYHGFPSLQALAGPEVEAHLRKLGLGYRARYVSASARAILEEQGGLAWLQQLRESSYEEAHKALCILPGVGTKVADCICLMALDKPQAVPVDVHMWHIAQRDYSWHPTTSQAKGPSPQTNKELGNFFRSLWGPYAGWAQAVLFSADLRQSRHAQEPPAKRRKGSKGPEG", "UniProt Q9C519, sequence (whole entry, looked up)": "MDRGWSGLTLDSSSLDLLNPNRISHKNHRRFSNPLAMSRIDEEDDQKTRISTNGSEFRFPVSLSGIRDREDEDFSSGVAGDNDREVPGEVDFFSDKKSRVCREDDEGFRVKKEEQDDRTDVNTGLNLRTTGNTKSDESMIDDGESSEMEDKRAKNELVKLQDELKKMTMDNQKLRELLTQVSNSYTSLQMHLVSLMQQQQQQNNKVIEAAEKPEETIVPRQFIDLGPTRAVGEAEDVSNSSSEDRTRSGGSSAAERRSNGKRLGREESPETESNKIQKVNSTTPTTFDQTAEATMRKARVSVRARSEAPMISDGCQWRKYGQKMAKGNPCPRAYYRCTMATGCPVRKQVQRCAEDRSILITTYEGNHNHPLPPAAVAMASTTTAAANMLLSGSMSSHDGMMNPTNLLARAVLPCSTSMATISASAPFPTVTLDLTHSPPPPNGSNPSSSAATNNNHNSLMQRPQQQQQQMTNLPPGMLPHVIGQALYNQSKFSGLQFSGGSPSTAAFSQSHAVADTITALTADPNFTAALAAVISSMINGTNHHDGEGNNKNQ", "UniProt Q15717, sequence (whole entry, looked up)": "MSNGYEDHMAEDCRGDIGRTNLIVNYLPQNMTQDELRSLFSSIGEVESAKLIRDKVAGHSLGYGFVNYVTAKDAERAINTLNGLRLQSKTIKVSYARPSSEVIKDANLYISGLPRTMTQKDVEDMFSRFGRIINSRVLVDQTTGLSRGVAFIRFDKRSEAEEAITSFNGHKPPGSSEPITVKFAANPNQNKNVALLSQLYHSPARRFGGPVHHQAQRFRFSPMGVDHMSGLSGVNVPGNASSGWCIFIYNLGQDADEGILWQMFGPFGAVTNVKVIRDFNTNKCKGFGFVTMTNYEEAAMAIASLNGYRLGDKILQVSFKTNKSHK", "UniProt P25822, sequence (whole entry, looked up)": "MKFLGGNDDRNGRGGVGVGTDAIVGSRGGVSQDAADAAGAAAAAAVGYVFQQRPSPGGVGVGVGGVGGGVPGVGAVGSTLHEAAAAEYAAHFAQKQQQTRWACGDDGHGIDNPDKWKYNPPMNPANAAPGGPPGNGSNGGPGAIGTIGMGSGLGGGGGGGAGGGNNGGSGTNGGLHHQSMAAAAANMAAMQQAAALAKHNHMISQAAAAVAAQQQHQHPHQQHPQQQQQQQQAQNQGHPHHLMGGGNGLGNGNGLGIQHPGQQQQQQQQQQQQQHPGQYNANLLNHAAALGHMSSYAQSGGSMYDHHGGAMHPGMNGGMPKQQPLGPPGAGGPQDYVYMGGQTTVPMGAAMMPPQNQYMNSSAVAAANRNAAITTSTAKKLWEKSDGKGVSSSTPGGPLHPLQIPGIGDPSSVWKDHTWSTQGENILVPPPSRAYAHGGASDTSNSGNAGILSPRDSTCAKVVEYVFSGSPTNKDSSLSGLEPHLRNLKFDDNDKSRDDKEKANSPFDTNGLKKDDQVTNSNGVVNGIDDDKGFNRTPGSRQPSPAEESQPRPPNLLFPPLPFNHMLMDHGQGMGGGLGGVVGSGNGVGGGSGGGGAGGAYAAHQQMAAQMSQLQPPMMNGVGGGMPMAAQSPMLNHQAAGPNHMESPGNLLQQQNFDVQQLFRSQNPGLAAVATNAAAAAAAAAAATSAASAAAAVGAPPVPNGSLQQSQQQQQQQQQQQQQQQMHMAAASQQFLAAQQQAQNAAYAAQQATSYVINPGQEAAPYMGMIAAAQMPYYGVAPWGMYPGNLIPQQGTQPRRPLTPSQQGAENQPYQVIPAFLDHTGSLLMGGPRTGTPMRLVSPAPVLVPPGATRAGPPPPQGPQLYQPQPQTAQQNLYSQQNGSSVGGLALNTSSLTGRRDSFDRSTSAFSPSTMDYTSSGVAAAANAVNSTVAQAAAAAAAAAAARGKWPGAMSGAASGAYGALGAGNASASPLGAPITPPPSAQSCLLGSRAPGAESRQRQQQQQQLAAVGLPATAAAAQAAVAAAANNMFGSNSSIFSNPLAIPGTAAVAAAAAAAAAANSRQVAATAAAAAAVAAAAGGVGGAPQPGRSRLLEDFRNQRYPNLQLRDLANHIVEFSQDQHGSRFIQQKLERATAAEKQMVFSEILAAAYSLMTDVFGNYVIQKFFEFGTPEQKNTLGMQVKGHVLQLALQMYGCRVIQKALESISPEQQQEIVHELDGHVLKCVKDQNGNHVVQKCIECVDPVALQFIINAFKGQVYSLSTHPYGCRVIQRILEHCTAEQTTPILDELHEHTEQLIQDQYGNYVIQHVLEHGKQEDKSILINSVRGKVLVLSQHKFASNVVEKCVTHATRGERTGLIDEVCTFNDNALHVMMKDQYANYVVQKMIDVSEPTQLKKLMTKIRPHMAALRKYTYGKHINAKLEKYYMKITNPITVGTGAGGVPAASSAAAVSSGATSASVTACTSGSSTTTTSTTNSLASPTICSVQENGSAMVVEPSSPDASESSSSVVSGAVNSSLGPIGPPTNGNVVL", "UniProt P31943, sequence (whole entry, looked up)": "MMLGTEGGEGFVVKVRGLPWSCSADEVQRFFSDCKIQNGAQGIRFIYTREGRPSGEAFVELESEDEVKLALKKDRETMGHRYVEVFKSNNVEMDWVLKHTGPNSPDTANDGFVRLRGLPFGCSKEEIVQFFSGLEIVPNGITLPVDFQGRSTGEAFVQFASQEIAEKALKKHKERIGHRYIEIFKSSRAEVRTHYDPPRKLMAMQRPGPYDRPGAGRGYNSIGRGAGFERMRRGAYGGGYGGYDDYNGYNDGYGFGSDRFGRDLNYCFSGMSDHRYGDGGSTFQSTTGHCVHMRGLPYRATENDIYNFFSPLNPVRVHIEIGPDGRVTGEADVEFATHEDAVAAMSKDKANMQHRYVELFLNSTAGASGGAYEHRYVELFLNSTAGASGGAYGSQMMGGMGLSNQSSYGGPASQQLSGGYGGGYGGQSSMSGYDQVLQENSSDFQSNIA", "UniProt Q60900, sequence (whole entry, looked up)": "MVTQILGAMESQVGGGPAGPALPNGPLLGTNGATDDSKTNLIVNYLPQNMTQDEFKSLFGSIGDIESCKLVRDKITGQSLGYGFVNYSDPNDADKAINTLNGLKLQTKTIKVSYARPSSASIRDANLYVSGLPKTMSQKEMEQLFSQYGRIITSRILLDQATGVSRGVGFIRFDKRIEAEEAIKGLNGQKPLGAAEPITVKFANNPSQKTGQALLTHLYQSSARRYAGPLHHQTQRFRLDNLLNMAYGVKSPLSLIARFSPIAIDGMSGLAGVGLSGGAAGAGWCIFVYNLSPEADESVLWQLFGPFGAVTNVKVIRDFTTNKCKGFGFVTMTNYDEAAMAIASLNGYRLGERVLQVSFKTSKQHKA", "UniProt P50534, sequence (whole entry, unmodified, looked up)": "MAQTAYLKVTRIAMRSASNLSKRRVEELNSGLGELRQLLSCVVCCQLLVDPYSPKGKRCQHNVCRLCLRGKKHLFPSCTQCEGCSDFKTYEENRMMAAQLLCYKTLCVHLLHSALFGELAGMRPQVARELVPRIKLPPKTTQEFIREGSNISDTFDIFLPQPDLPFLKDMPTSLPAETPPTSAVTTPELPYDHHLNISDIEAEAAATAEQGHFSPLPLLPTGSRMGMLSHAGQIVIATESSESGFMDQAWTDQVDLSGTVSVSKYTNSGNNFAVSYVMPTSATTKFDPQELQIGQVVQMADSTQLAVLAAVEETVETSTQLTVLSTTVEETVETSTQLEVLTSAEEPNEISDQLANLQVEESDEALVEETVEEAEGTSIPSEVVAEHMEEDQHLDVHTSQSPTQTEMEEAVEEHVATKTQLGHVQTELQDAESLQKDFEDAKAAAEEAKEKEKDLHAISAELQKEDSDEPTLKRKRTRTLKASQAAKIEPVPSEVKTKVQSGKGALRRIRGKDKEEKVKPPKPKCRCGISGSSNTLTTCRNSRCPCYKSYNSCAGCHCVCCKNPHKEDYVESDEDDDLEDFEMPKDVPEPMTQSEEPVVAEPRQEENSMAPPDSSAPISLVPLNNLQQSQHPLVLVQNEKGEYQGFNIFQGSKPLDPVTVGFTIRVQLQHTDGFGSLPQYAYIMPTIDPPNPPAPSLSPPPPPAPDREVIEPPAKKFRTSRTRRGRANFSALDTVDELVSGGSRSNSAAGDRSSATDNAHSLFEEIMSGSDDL", "UniProt Q9NWB1, sequence (whole entry, looked up)": "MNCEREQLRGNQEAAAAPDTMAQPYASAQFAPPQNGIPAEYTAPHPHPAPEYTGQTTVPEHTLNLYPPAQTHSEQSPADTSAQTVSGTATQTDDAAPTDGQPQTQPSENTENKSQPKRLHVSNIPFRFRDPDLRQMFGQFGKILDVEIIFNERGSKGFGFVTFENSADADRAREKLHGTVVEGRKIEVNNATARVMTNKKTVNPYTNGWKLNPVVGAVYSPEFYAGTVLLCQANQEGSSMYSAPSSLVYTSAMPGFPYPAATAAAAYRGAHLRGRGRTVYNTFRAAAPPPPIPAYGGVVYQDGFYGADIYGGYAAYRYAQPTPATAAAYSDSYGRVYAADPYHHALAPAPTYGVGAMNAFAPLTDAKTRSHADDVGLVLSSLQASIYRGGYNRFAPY", "UniProt Q8K3Y3, sequence (whole entry, looked up)": "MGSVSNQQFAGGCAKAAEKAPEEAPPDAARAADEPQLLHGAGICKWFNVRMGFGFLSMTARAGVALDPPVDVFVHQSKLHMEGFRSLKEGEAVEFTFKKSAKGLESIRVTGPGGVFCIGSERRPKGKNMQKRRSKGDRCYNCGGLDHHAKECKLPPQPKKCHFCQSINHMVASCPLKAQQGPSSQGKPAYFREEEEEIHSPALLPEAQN"}
{"Oligonucleotide": "GGCGGCGGTCTCATCGGTGAAACGGGGCTGGGCGCTCATTTTCTTAAACA (dsDNA)", "target": "clp full length assumed", "test": "EMSA", "system": "double-stranded DNA, one strand shown", "binding": "no binding"}
{"Oligonucleotide": "UGGAGAGCUGGCUGCUUCUUCAGGGGUUUCCACUCCAGGG (ssRNA)", "target": "ELAVL1 full length assumed", "test": "EMSA", "system": "RNA", "binding": "binds"}
{"Oligonucleotide": "CTCTCGCCTTCC (dsDNA; 12-mer duplex)", "target": "OGG1 1-345 (Homo sapiens, UniProt O15527)", "test": "stopped-flow fluorescence", "system": "double-stranded DNA, one strand shown", "binding": "binds"}
{"Oligonucleotide": "CAAACAAAACCGUGUAAAAACAAA (ssRNA; single strand, 2'-OMe G12, G14, A23)", "target": "rnr 82-725 (Mycoplasmoides genitalium, UniProt P47350)", "test": "fluorescence polarization", "system": "RNA", "conditions": "with: Mg2+", "binding": "binds"}
{"Oligonucleotide": "TTATTCAGCCATCAAAAGCTGACCAATAAT (dsDNA)", "target": "WRKY6 full length assumed", "test": "EMSA", "system": "double-stranded DNA, one strand shown", "binding": "no binding"}
{"Oligonucleotide": "GAAUUUUUUUUUUUUAAUUCACUAACUUUACUUUAAAAGA (ssRNA)", "target": "Elavl3 full length assumed (Mus musculus, UniProt Q60900)", "test": "EMSA", "system": "RNA", "binding": "binds"}
{"Oligonucleotide": "GGGAGACCUAGCCUCAUAUAAUCGUUGUCCAGAAUGGGAUGGAUUCGUAGCAUAAGUUUUCCAAACAUUAUUUUGUUGUCGAAAAUGGGACGGAAGCCAAUUAAGCCGCUA (ssRNA)", "target": "pum", "test": "EMSA", "system": "RNA", "binding": "no binding"}
{"Oligonucleotide": "AGTCTTTTTGGTCTCTGGTCGGTCGACAATCCGTGTG (dsDNA; 5-C6-amino-dT labels)", "target": "ARF1 1-355 (Arabidopsis thaliana, UniProt Q8L7G0)", "test": "smFRET kinetics", "system": "double-stranded DNA, one strand shown", "binding": "binds"}
{"Oligonucleotide": "TTATTCAGCCATCAAAGGTTGACCAGTAAT (dsDNA)", "target": "WRKY6 full length assumed", "test": "EMSA", "system": "double-stranded DNA, one strand shown", "binding": "binds"}
{"Oligonucleotide": "CTTCCTCCAGATGAGCTCATGGGTTTCTCCACCAAGGAAGTTTTCCGCTGGTTG (dsDNA)", "target": "T1, NFATC1 408-716", "test": "EMSA", "system": "double-stranded DNA, one strand shown", "binding": "binds"}
{"Oligonucleotide": "CAGGAUUUAAAAUUUAAUUAUAUCAGUAAAGAGAUUAAUUUUAAC (ssRNA)", "target": "ELAVL1 full length assumed", "test": "EMSA", "system": "RNA", "binding": "no binding"}
{"Oligonucleotide": "GGGAGACCUAGCCUCAUAUAAUCGUUGUCCAGAAUUGUAUAUAUUCGUAGCAUAAGUUUUCCAAACAUUAUUUUGUUGUCGAAAAUGGGACGGAAGCCAAUUAAGCCGCUA (ssRNA)", "target": "pum", "test": "EMSA", "system": "RNA", "binding": "binds"}
{"Oligonucleotide": "CAGCAGCAGCAGCAGCAGCAGCAGCAGCAG (dsDNA; blunt 30 bp, 8-oxoG G15)", "target": "OGG1 (Homo sapiens, UniProt O15527)", "test": "NaBH4 trapping, SDS-PAGE", "system": "double-stranded DNA, one strand shown", "binding": "binds"}
{"Oligonucleotide": "TTATTCAGCCATCAAAAGTTCACCAATAAT (dsDNA)", "target": "WRKY6 full length assumed", "test": "EMSA", "system": "double-stranded DNA, one strand shown", "binding": "no binding"}
{"Oligonucleotide": "GCAGAUUCACAAUCUAUGAUACCACCCGGUACAGGAGAUAUCUGCA (structured RNA)", "target": "Lin28a 119-180 (Mus musculus, UniProt Q8K3Y3)", "test": "EMSA", "system": "folded RNA", "binding": "no binding"}
{"Oligonucleotide": "TTATTCAGCCATCAAAAGGTGACCAATAAT (dsDNA)", "target": "WRKY6 full length assumed", "test": "EMSA", "system": "double-stranded DNA, one strand shown", "binding": "no binding"}
{"Oligonucleotide": "CUGUAUUUAUCUGUUUAUUUAUACCUAUUUAUGUAUUUAUUUAUUGAAGUGUGAAAUU (ssRNA)", "target": "ELAVL1 1-326 (Homo sapiens, UniProt Q15717)", "test": "EMSA", "system": "RNA", "conditions": "not purified", "binding": "binds"}
{"Oligonucleotide": "AGGCGAGUAGGGUAUGCUG (ssRNA)", "target": "HNRNPH1 full length assumed (Homo sapiens, UniProt P31943)", "test": "UV cross-linking", "system": "RNA, S100", "binding": "binds"}
{"Oligonucleotide": "GCUGGUUUCAUAUGGUGGUUUAGAUUUAAAUAGUGAUUGUCUAGCACCAUUUGAAAUCAGUGUU (structured RNA)", "target": "DICER1 (Homo sapiens, UniProt Q9UPY3)", "test": "EMSA", "system": "folded RNA", "conditions": "30 nM", "binding": "binds"}
{"Oligonucleotide": "TTATTCAGCCATCAAAAGTTGACCTATAAT (dsDNA)", "target": "WRKY6 full length assumed", "test": "EMSA", "system": "double-stranded DNA, one strand shown", "binding": "binds"}
{"Oligonucleotide": "CUAGGCGCAGUUGUGUAGCAGUUGAGUAAUGCUGGUUAGCUGUUAAGGUGGCGUGUUGCAGUGCAGAGUGCUUGGCUGUUUCCUGUUUUCUCCCGAUUGCUCCUGUGUAA (RNA; long stem loop)", "target": "HNRNPH1 11-188 (Homo sapiens, UniProt P31943)", "test": "RNase footprinting", "system": "folded RNA", "binding": "binds"}
{"Oligonucleotide": "ATGAGCGAGATGGAT (dsDNA)", "target": "msl-2 520-570 C560G (Drosophila melanogaster, UniProt P50534)", "test": "crystal structure", "system": "double-stranded DNA, one strand shown", "conditions": "with: Zn2+", "binding": "binds"}
{"Oligonucleotide": "GCAGCUUCUUUACAGUGUUGCCUUGUGGCAUGGAGUUCAAGCAGCAUUGUACAGGGCUAUCA (structured RNA)", "target": "RBFOX1 109-208 (Homo sapiens, UniProt Q9NWB1)", "test": "SHAPE footprinting", "system": "folded RNA", "binding": "binds"}
{"Oligonucleotide": "CACGCUCAUGCACACACCCACA (ssRNA)", "target": "EPRS1 749-878 (Homo sapiens, UniProt P07814)", "test": "EMSA", "system": "RNA", "binding": "no binding"}
{"Oligonucleotide": "TTTACTTGTTAGAAAAGAGCTTTCCAAGGGATATTTCA (dsDNA)", "target": "nin 560-878 (Lotus japonicus, UniProt Q9S7B1)", "test": "EMSA", "system": "double-stranded DNA, one strand shown", "binding": "no binding"}
{"Oligonucleotide": "GATATTCCAAAGAATGATCCGCGTCGCAGGATAATCGGGCCTGCGCCTTT (dsDNA)", "target": "clp full length assumed", "test": "competition", "system": "double-stranded DNA, one strand shown", "binding": "binds"}
{"Oligonucleotide": "CAGCAGCAGCAGCAGCAGCAGCAGCAGCAG (structured DNA; hairpin, 8-oxoG G6)", "target": "OGG1 (Homo sapiens, UniProt O15527)", "test": "NaBH4 trapping, SDS-PAGE", "system": "folded DNA", "binding": "binds"}
{"Oligonucleotide": "TGATTTCTTACCTTTTGGAGCCGCATGATGTCGCTGTCTACCATGA (dsDNA)", "target": "CTCF 266-577 (Homo sapiens, UniProt P49711)", "test": "EMSA", "system": "double-stranded DNA, one strand shown", "conditions": "not purified", "binding": "binds"}
{"Oligonucleotide": "TTATTCAGCCATCAAAAGTTGACAAATAAT (dsDNA)", "target": "WRKY6 full length assumed", "test": "EMSA", "system": "double-stranded DNA, one strand shown", "binding": "no binding"}
{"Oligonucleotide": "TTCTAGAAAGAACACGTGTTTCGTATTACT (dsDNA)", "target": "Basic helix-loop-helix transcription factor 1-394 (Salvia miltiorrhiza, UniProt A0A0H3Y8V8)", "test": "EMSA", "system": "double-stranded DNA, one strand shown", "binding": "binds"}
{"note": "Repeated from above:"}
{"Oligonucleotide": "GATATTCCAAAGAATGATCCGCGTCGCAGGATAATCGGGCCTGCGCCTTT (dsDNA)", "target": "clp full length assumed", "test": "competition", "system": "double-stranded DNA, one strand shown", "binding": "binds"}
{"Oligonucleotide": "CAGCAGCAGCAGCAGCAGCAGCAGCAGCAG (structured DNA; hairpin, 8-oxoG G6)", "target": "OGG1 (Homo sapiens, UniProt O15527)", "test": "NaBH4 trapping, SDS-PAGE", "system": "folded DNA", "binding": "binds"}
{"Oligonucleotide": "TGATTTCTTACCTTTTGGAGCCGCATGATGTCGCTGTCTACCATGA (dsDNA)", "target": "CTCF 266-577 (Homo sapiens, UniProt P49711)", "test": "EMSA", "system": "double-stranded DNA, one strand shown", "conditions": "not purified", "binding": "binds"}
{"Oligonucleotide": "TTATTCAGCCATCAAAAGTTGACAAATAAT (dsDNA)", "target": "WRKY6 full length assumed", "test": "EMSA", "system": "double-stranded DNA, one strand shown", "binding": "no binding"}
